Experimental data of several laboratories.
Compare with care: the assays were run in different laboratories. Several values in a cell are separate wells, animals, samples, runs or records. ± gives the spread as reported.
Cell line: HeLa

CCCCCCCCCCCC(=O)N[C@H](CO)C[C@@H](O)c1ccccc1 — sphingomyelin C16 amount (cellular CERT activity, HPLC-MS/MS lipidomics; 1 µM, 24 h): 725000 pmol and 811000 pmol and 816000 pmol
CSc1cc(C)[nH]c(=O)c1CNC(=O)c1c(C)n(C(C)C2CCC(NC3(C)COC3)CC2)c2ccccc12 (stereo not shown) — EC50 (histone methylation reduction, AlphaLISA, item: H3K27me3; 72 h): 0.002 µM
C[C@@H]1CC[C@@H]([C@@](O)(CNCc2ccc(F)cc2)COCc2ccc(F)cc2)[C@H](OCc2ccc(F)cc2)C1 — inhibition (cell growth or viability, MTT; 30 µM, 72 h): 94.5%
O=[C]=[Mn-2]12(=[C]=O)(=[C]=O)[O]c3cc4c(cc3=[N+]1CCc1ccccc1)[O][Mn-2](=[C]=O)(=[C]=O)(=[C]=O)([N+]=4CCc1ccccc1)[n+]1ccc(cc1)C(=O)OCCOC(=O)c1cc[n+]2cc1 — viability reduction (MTT; 50 µM, 48 h, photolysed compound): 61%
C[C@@H]1CC[C@@H]([C@](O)(CNCc2cccc(F)c2)COCc2ccccc2)[C@H](OCc2ccccc2)C1 — inhibition (cell growth or viability, MTT; 10 µM, 72 h): 96.7%
CCC(=CCc1c(O)cc2c(c1O)C(=O)CC(c1ccc(OC)c(O)c1)O2)CC (stereo not shown) — inhibition (cell growth or viability, MTT; 50 µM, 48 h): 96.6%
CCCCCCCCCCCC(=O)N[C@@H](CO)C[C@@H](O)c1cccc(CCCCCC)c1 — sphingomyelin level (CERT activity, HPLC-MS/MS lipidomics, item: sphingomyelin 16; 1 µM, 24 h, not cell-number normalised): 591000 pmol/sample and 515000 pmol/sample and 502000 pmol/sample
CCCCCCCCCCCCCC(=S)NCCCC[C@H](NS(C)(=O)=O)C(=O)N[C@@H](C)C(=O)N[C@@H](CCCNC(=N)N)C(N)=O — EC50 (cell growth or viability, MTT; 72 h): 19.4 to 29.3 µM
Cc1c(C)c2cccnc2c2ncccc12.Cc1ccc2c(Cl)cc(Cl)c([O-])c2n1.Cc1ccc2c(Cl)cc(Cl)c([O-])c2n1.[Co+2] — IC50 (cell growth or viability, MTT; 48 h): 0.59 µM
CCCC[N+]1=c2cc3c4cc2[O][Mn-2]1(=[C]=O)(=[C]=O)(=[C]=O)[n+]1ccc(cc1)C(=O)NCCNC(=O)c1cc[n+](cc1)[Mn-2](=[C]=O)(=[C]=O)(=[C]=O)([O]3)[N+]=4CCCC — viability reduction (MTT; 50 µM, 48 h, photolysed compound): 89%
N#CSCCCCCCOc1ccc2c(-c3ccccc3)cc(=O)oc2c1 — GI50 (cell growth or viability, SRB): 31 µM
CN(C)c1ccc(-n2cc(COC(=O)[C@@]3(C)C=C(C(=O)OC(C)(C)C)C(=O)CC3)nn2)cc1 — pERK/ERK ratio (quantitative western blot; concentration not given, 0 (unit not given), together with: EGF): 0.0853
C[C@@H]1CC[C@@H]([C@](O)(COCc2ccccc2)Cn2cnc3ccccc32)[C@H](OCc2ccccc2)C1 — inhibition (cell growth or viability, MTT; 10 µM, 72 h): 97.8%
O=C(Nc1cc(OCCN2CCCC2)c2ccccc2n1)c1cccc(C(=O)Nc2cc(OCCN3CCCC3)c3ccccc3n2)n1 — selectivity ratio (cell viability, CellTiter-Glo; 72 h; reference: IC50 HeLa over WI-38): 1
CCCCCCCCCCCCCC(=S)NCCCC[C@H](NC(=O)OCc1ccccc1)C(=O)Nc1ccccc1 — EC50 (cell growth or viability, MTT; 72 h): 1.87 to 11.5 µM
COc1ccccc1CNC[C@](O)(COCc1ccccc1)[C@@H]1CC[C@@H](C)C[C@H]1OCc1ccccc1 — inhibition (cell growth or viability, MTT; 30 µM, 72 h): 97.6%
CCC(=CCc1c(O)cc2c(c1O)C(=O)CC(c1cc(OC)ccc1O)O2)CC (stereo not shown) — inhibition (cell growth or viability, MTT; 50 µM, 48 h): 26.5%
CCCC[N+]1=c2cc3c4cc2[O][Mn-2]1(=[C]=O)(=[C]=O)(=[C]=O)[n+]1ccc(cc1)C(=O)Oc1ccccc1OC(=O)c1cc[n+](cc1)[Mn-2](=[C]=O)(=[C]=O)(=[C]=O)([O]3)[N+]=4CCCC — viability reduction (MTT; 50 µM, 48 h, photolysed compound): 53%
C[C@@H]1O[C@H]2O[C@@H]3C4(O)C(=O)c5cccc(O)c5C(=O)C4(O)O[C@]3(C)[C@]21O (stereo partly shown) — EC50 (cell growth or viability, MTT; 48 h): 83.8 µM
CC(NC(=O)c1ccccc1)C(CCCCCCCCCCCCCCC(=O)CCCCCCCC(OC(=O)c1ccccc1)C(C)NC(=O)c1ccccc1)OC(=O)c1ccccc1 (stereo not shown) — growth inhibition (cytotoxicity; concentration not given): 13 ± 1.31%
CCCCCCc1cccc([C@H](O)C[C@H](CO)NC(=O)CCCCCOc2ccc3ccccc3c2)c1 — ceramide level (CERT activity, HPLC-MS/MS lipidomics, item: ceramide 20; 1 µM, 24 h, not cell-number normalised): 85 pmol/sample and 130 pmol/sample and 108 pmol/sample
O=C1NCC(COc2nccc3c(NCc4ccccc4)cc(Cl)nc23)O1 (stereo not shown) — GFP/RFP ratio (splicing reporter, item: GLA; 10 µM, 18 h): 4.89
CCC(=CCc1c(O)cc2c(c1O)C(=O)CC(c1ccc(OC)cc1O)O2)CC (stereo not shown) — inhibition (cell growth or viability, MTT; 12.5 µM, 48 h): 41.6%
COc1ccc(CNC[C@@](O)(COCc2ccc(OC)cc2)[C@@H]2CC[C@@H](C)C[C@H]2OCc2ccc(OC)cc2)cc1 — inhibition (cell growth or viability, MTT; 10 µM, 72 h): 99.2%
CSc1cc(C)[nH]c(=O)c1CNC(=O)c1cc(Cl)c2c(c1C)OC(C)(C1CCC(N(C)C)CC1)O2 (stereo not shown) — EC50 (histone methylation reduction, AlphaLISA, item: H3K27me3; 72 h): 0.00065 µM
CCCCCCCCCCCCNC(=S)NCCCC[C@H](NC(=O)OCc1ccccc1)C(=O)N[C@@H](Cc1c[nH]c2ccccc12)C(=O)NC(C)C — EC50 (cell growth or viability, MTT; 72 h): 15.6 to 19.2 µM
C[C@@H]1CC[C@@H]([C@](O)(CNCc2ccccc2F)COCc2ccccc2)[C@H](OCc2ccccc2)C1 — inhibition (cell growth or viability, MTT; 10 µM, 72 h): 98.2%
O=C1NCC(COc2cccc3c(NCc4ccco4)cc(Cl)nc23)O1 (stereo not shown) — GFP/RFP ratio (splicing reporter, item: GLA; 10 µM, 18 h): 4.51
COc1cccc(CNC[C@](O)(COCc2ccccc2)[C@@H]2CC[C@@H](C)C[C@H]2OCc2ccccc2)c1 — inhibition (cell growth or viability, MTT; 30 µM, 72 h): 99.2%
CCC(=CCc1c(O)cc2c(c1O)C(=O)CC(c1ccccc1O)O2)CC (stereo not shown) — inhibition (cell growth or viability, MTT; 120 µM, 48 h): 91%
COc1ccc(CNC[C@@](O)(COCc2ccc(F)cc2)[C@@H]2CC[C@@H](C)C[C@H]2OCc2ccc(F)cc2)cc1 — inhibition (cell growth or viability, MTT; 30 µM, 72 h): 95.8%
CCC(=CCc1c(O)cc2c(c1O)C(=O)CC(c1cc(O)ccc1OC)O2)CC (stereo not shown) — inhibition (cell growth or viability, MTT; 3.125 µM, 48 h): 3.03%
CC(C)(C)c1ccc([C@H](O)C[C@H](CO)NC(=O)CCCCCOc2ccc3ccccc3c2)cc1 — sphingomyelin level (CERT activity, HPLC-MS/MS lipidomics, item: sphingomyelin 20; 1 µM, 24 h, not cell-number normalised): 3110 pmol/sample and 2000 pmol/sample and 3660 pmol/sample
CCC(=CCc1c(O)cc2c(c1O)C(=O)CC(c1ccc(O)cc1)O2)CC (stereo not shown) — necrotic cells (annexin V/PI; 24 µM, 48 h): 4.61 ± 0.06%
CCCCCCc1cccc([C@H](O)C[C@H](CO)NC(=O)CCCCCCCCCCBr)c1 — sphingomyelin level (CERT activity, HPLC-MS/MS lipidomics, item: sphingomyelin 20; 1 µM, 24 h, not cell-number normalised): 4410 pmol/sample and 3100 pmol/sample and 4590 pmol/sample
CCC(=CCc1c(O)cc2c(c1O)C(=O)CC(c1c(O)cccc1OC)O2)CC (stereo not shown) — inhibition (cell growth or viability, MTT; 3.125 µM, 48 h): 5.5%
Cc1c(COc2cc(OCc3cccc(C#N)c3)c(CNC(CO)(CO)CO)cc2Cl)cccc1-c1cccc(OCCCCCCC(=O)NO)c1 — inhibition (cell growth or viability, CCK-8; 10 µM): 54.6%

For quick reference, copied from above:
C[C@@H]1CC[C@@H]([C@](O)(COCc2ccccc2)Cn2cnc3ccccc32)[C@H](OCc2ccccc2)C1 — inhibition (cell growth or viability, MTT; 10 µM, 72 h): 97.8%
O=C(Nc1cc(OCCN2CCCC2)c2ccccc2n1)c1cccc(C(=O)Nc2cc(OCCN3CCCC3)c3ccccc3n2)n1 — selectivity ratio (cell viability, CellTiter-Glo; 72 h; reference: IC50 HeLa over WI-38): 1
CCCCCCCCCCCCCC(=S)NCCCC[C@H](NC(=O)OCc1ccccc1)C(=O)Nc1ccccc1 — EC50 (cell growth or viability, MTT; 72 h): 1.87 to 11.5 µM
COc1ccccc1CNC[C@](O)(COCc1ccccc1)[C@@H]1CC[C@@H](C)C[C@H]1OCc1ccccc1 — inhibition (cell growth or viability, MTT; 30 µM, 72 h): 97.6%
CCC(=CCc1c(O)cc2c(c1O)C(=O)CC(c1cc(OC)ccc1O)O2)CC (stereo not shown) — inhibition (cell growth or viability, MTT; 50 µM, 48 h): 26.5%
